Published values gathered from unrelated publications.
Several values in a cell are separate wells, animals, samples, runs or records. Numbers after ± are the reported error.
CAPN1: Calpain-1 catalytic subunit (CAPN1, Homo sapiens, UniProt P07384)
Adhesin FmlH lectin domain: Adhesin FmlH, lectin domain (Escherichia coli, UniProt Q1RBS0)
USP51: Ubiquitin carboxyl-terminal hydrolase 51 (USP51, Homo sapiens, UniProt Q70EK9)
PTGS1: Prostaglandin G/H synthase 1 (PTGS1, Ovis aries, UniProt P05979)
STING1 H232R: Stimulator of interferon genes protein (STING1, Homo sapiens, UniProt Q86WV6, H232R)
MAL12: Alpha-glucosidase MAL12 (MAL12, Saccharomyces cerevisiae S288c, UniProt P53341)

Structure (SMILES)	target or system	test	system	setting	how to read	endpoint	value
Cc1ccc(CNC(=O)[C@H](CCc2ccccc2)NC(=O)[C@H](CC(=O)NCC(C)(C)C)NC(=O)c2ccc(OCc3ccccc3)cc2)cc1	CAPN1	enzyme activity, inhibitor	–	100 µM	–	inhibition	25%
C[Si](C)(C)C[C@H](CN)CC(=O)O	DRD2 (Homo sapiens, UniProt P14416)	ligand displacement, radioligand	–	250 µM	–	inhibition	-19%
COCC(=O)N1CCc2cc(-c3csc(NC(=O)c4cc(OC)cc(OC)c4)n3)ccc21	Adra1b (Rattus norvegicus, UniProt P15823)	cell-free assay	–	10 µM	–	inhibition	13%
Nc1nc(-c2ccccc2)nc2[nH]nc(Nc3cccnc3)c12	HeLa Ohio	–	–	72 h	–	CC50	> 165 µM
O=[N+]([O-])c1ccc(S[C@@H]2O[C@H](CO)[C@H](O)[C@H](O)[C@H]2O)cc1	Adhesin FmlH lectin domain	binding to desialylated mucin, ELISA competition	UPEC UTI89	10 µM, added: desialylated bovine submaxillary mucin	–	inhibition	17 ± 3.7%
COc1cc(-c2cn(C)c(=O)c3cnccc23)cc(OC)c1CN(C)C	Bromodomain testis-specific protein, BD2 (BRDT, Homo sapiens, UniProt Q58F21)	–	–	1 µM	–	inhibition	-54.3%
CN(Cc1ccc(/C=C/C(=O)NO)cc1)CC12CC3CC(CC(C3)C1)C2	human CCR1 receptor	radioligand binding	–	0.05 µM	–	inhibition	6%
CCCC[C@H](NC(=O)CCCCCCCNC(=O)CN1CCN(CC(=O)O)CCN(CC(=O)O)CC1)C(=O)N[C@H]1CC(=O)NCCCC[C@@H](C(N)=O)NC(=O)[C@H](Cc2c[nH]c3ccccc23)NC(=O)[C@H](CCCNC(=N)N)NC(=O)[C@@H](Cc2ccccc2)NC(=O)[C@H](Cc2c[nH]cn2)NC1=O [technetium-99m labelled]	–	–	C57 mouse, tumor	intravenous, 0.037 MBq, 0.5 h	–	tissue uptake	28.9 ± 1.81 %ID/g
O=C(Nc1ccc(OCc2cc(C(=O)NCCc3ccccc3)no2)cc1)c1ccc(Cl)cc1	USP51	enzyme activity, inhibitor	–	1 µM	–	inhibition	17.1 ± 6.2%
O=C(NS(=O)(=O)c1cccs1)c1cc2ccccc2n1Cc1ccc(Br)c2ccccc12	SLC22A12 (Homo sapiens, UniProt Q96S37)	uric acid uptake, inhibitor	HEK293 transiently expressing URAT1	15 µM, added: [14C]uric acid	–	inhibition	98.6%
CN(C)C/C=C/C(=O)Nc1ccc2nc(NCCCCCN(C)C)nc(NCCCCCCN(C)C)c2c1	KMT2C (Homo sapiens, UniProt Q8NEZ4)	enzyme activity, inhibitor, radiometric	–	10 µM	–	inhibition	1%
COc1cc(-c2cc(CN(Cc3ccc(F)cc3)S(=O)(=O)c3ccccc3)no2)cc(OC)c1OC	USP51	enzyme activity, inhibitor	–	1 µM	–	inhibition	32.2 ± 13.6%
Cc1nn(-c2cccc(N)c2)c(=O)c2cnc(Nc3ccc(N4CCNCC4)cc3)nc12	PIK3C2B (Homo sapiens, UniProt O00750)	kinase activity, inhibitor, SelectScreen kinase profiling	–	–	–	IC50	> 10 µM
CS(=O)(=O)c1ccc(-n2cc(C=NN=c3[nH]c(-c4ccc([N+](=O)[O-])cc4)cs3)c(-c3ccc([N+](=O)[O-])cc3)n2)cc1	PTGS1	enzyme activity	–	0.1 µM	–	inhibition	8.62%
CCCC(=O)O[C@@]1(C)CN(Cc2ccccc2)[C@H]2C[C@@H]1CC(=O)[C@@H]2C	Mu-type opioid receptor (Cavia porcellus, UniProt A0ACM8Q262)	binding, radioligand binding	guinea pig brain membranes	1 µM, added: [3H]DAMGO	–	inhibition	19%
Cc1ccc(-c2nn(-c3ccc(S(C)(=O)=O)cc3)cc2C=NN=c2[nH]c(-c3ccc([N+](=O)[O-])cc3)cs2)cc1	PTGS1	enzyme activity	–	0.1 µM	–	inhibition	11.6%
CC(=O)N[C@H]1[C@H](Oc2ccccc2-c2cccc(C(=O)O)c2)O[C@H](CO)[C@H](O)[C@@H]1O	Adhesin FmlH lectin domain	binding to desialylated bovine submaxillary mucin, inhibitor, ELISA competition	UPEC UTI89	1 µM	–	inhibition	54.7 ± 2.8%
O=C1c2sc(-c3ccc(N4CCC(CO)CC4)nc3F)nc2CCN1c1cccnc1	sigma receptor, non-selective (human)	radioligand binding, BioPrint binding panel	–	1 µM, added: agonist radioligand	–	inhibition	1%
COc1ncc2nc(C)n(Cc3ncc(S(N)(=O)=O)cc3F)c2c1-c1ccccc1	HTR1A (Homo sapiens, UniProt P08908)	antagonist, cell-based	–	10 µM	–	inhibition	13.6%
COc1cc(NS(=O)(=O)c2ccc3c(c2)oc(=O)n3C)cc(OC)c1OC	USP51	enzyme activity, inhibitor	–	1 µM	–	inhibition	36.2 ± 9.9%
O=C(N[C@@H](CCNC(=O)c1ccc([N+](=O)[O-])o1)c1nc2ccccc2[nH]1)c1ccc(-c2ccccc2)o1	STING1 H232R	reporter gene, inhibitor	THP1-Dual KI-hSTING-R232	24 h, 1 h preincubation, added: diABZI 500 nM	–	EC50	19.2 µM
Cc1ccc(-c2nn(-c3ccc(S(C)(=O)=O)cc3)cc2C=NN=c2[nH]c(-c3ccc(Br)cc3)cs2)cc1 (mixture of isomers)	PTGS1	enzyme activity	–	10 µM	–	inhibition	57.7%
CN1CC[C@@H](COc2cnc(C#N)cc2-c2ccn3nc(NC(=O)C4CC4)cc3c2)C1	TAF1L (Homo sapiens, UniProt Q8IZX4)	enzyme activity, inhibitor	–	1 µM	–	inhibition	3%
C/C=C/C(=O)Nc1ccc2nc(NCCCCCN(C)C)nc(NCCCCCCN(C)C)c2c1	EZH2 (Homo sapiens, UniProt Q15910)	enzyme activity, inhibitor, radiometric	–	10 µM	–	inhibition	35%

Structure (SMILES)	target or system	test	system	setting	how to read	endpoint	value
Cc1ncsc1-c1ccc(C(C)NC(=O)C2CC(O)CN2C(=O)C(NC(=O)CCCCCCCCCCN2CCCC(Nc3ncc(Cl)c(Nc4ccccc4S(=O)(=O)C(C)C)n3)C2)C(C)(C)C)cc1 (centres unmarked)	22Rv1	RNA-seq, item: SH3PXD2B mRNA	–	concentration not given	relative to: DMSO	log2 fold change	-1.72
C=CC(=O)Nc1cc(-c2nn(C3CCN(CCNC(=O)[C@H](C)CCC45CC6CC(CC(C6)C4)C5)CC3)c3ncnc(N)c23)ccc1Oc1ccccc1	MAST4 (Homo sapiens, UniProt O15021)	inhibitor, KiNativ profiling	biochemical	2 µM	–	inhibition	-7.4%
COC(=O)C1C(c2ccc(C)cc2)c2c(O)n[nH]c2CC1(C)O (centres unmarked)	USP51	enzyme activity, inhibitor	–	1 µM	–	inhibition	10.2 ± 3.1%
Brc1ccccc1-c1nnc(CSc2nnnn2-c2ccccc2)o1	ADRA2C (Homo sapiens, UniProt P18825)	ligand displacement, radioligand	–	10 µM	–	inhibition	8%
CS(=O)(=O)c1ccc(-n2cc(C=NN=c3[nH]c(-c4ccc(Br)cc4)cs3)c(-c3ccc([N+](=O)[O-])cc3)n2)cc1 (mixture of isomers)	PTGS1	enzyme activity	–	1 µM	–	inhibition	18.5%
C[C@@H]1O[C@@H](Oc2ccc(CC(N)=O)cc2)[C@H](O)[C@H](O)[C@H]1O	MAL12	inhibitor	–	100 µg/mL, 0.4167 h, added: p-nitrophenyl glucoside substrate	–	inhibition	44.9 ± 2.82%
C=CC(=O)N1Cc2nc(-c3cc(-c4cc(Cl)cnc4Cl)c(F)cc3F)n(-c3ccncn3)c2C1	PEAK1 (Homo sapiens, UniProt Q9H792)	cell-free assay, inhibitor	–	1 µM	–	inhibition	7%
OC[C@H]1O[C@@H](Oc2ccccc2-c2ccccc2)[C@H](O)[C@@H](O)[C@H]1O	Adhesin FmlH lectin domain	binding to desialylated bovine submaxillary mucin, inhibitor, ELISA competition	UPEC UTI89	1 µM	–	inhibition	8.1 ± 6%
O=C1CO[C@H](CNC(=O)C2(c3ccc(Cl)cc3)CC2)CN1C1Cc2ccccc2C1	CX3CR1 (Homo sapiens, UniProt P49238)	β-arrestin recruitment, antagonist	–	1 µM	–	inhibition	8%
COC1CN([C@H]2CC[C@H]([C@@]3(C)Oc4c(Cl)cc(C(=O)NCc5c(SC)cc(C)[nH]c5=O)c(C)c4O3)CC2)C1	–	RNA-seq, item: PLVAP mouse homolog	mouse, HT-1376 xenograft, whole blood	dose not given	relative to: vehicle	log2 fold change	0.515
C[Si]1(C[C@H](CN)CC(=O)O)CCCC1	GALR1 (Homo sapiens, UniProt P47211)	enzyme activity, inhibitor	–	70 µM	–	inhibition	3%
O=C(N[C@@H](CCCCNC(=O)c1ccc([N+](=O)[O-])o1)c1nc2ccccc2[nH]1)c1ccc(-c2nccs2)cc1	STING1 H232R	reporter gene, inhibitor	THP1-Dual KI-hSTING-R232	24 h, 1 h preincubation, added: diABZI 500 nM	–	EC50	10.4 µM
Cc1ccc(CNC(=O)[C@H](CCc2ccccc2)NC(=O)[C@H](CC(=O)NCC(C)(C)C)NC(=O)CCc2cccc(F)c2)cc1	Plasminogen (PLG, Homo sapiens, UniProt P00747)	enzyme activity, inhibitor	–	100 µM	–	inhibition	-18%
OC[C@H]1O[C@@H](Oc2cccc3cccnc23)[C@H](O)[C@@H](O)[C@H]1O	Adhesin FmlH lectin domain	binding to desialylated bovine submaxillary mucin, inhibitor, ELISA competition	UPEC UTI89	1 µM	–	inhibition	19.2 ± 2.8%
O=C1c2sc(-c3ccc(N4CCC(F)C4)nc3F)nc2CCN1c1cccnc1 (centres unmarked)	EDNRA (Homo sapiens, UniProt P25101)	ligand displacement, radioligand	–	1 µM	–	inhibition	-31%
Cc1cc(C)n(Cc2c(O)ccc3ccc(=O)oc23)n1	MAL12	inhibitor	–	25 µM	–	inhibition	20.2%
Nc1ncc(-c2cc(-c3cnn(CC(F)(F)F)c3)ncc2F)nc1C(=O)NC1CNCC(F)C1 (centres unmarked)	BRK	KINOMEscan competition binding	–	1 µM	relative to: DMSO control	remaining binding	81%
O=[N+]([O-])c1ccc(O[C@@H]2O[C@H](CO)[C@H](O)[C@H](O)[C@H]2O)cc1	Adhesin FmlH lectin domain	binding to desialylated mucin, ELISA competition	UPEC UTI89	100 µM	–	inhibition	78.1 ± 0.6%
Oc1cc2c(cc1O)C(c1ccco1)NCC2 (centres unmarked)	MAL12	enzyme activity, inhibitor	–	100 µM, DMSO solvent, added: pNPG substrate	–	inhibition	58.4 ± 1.72%
Cc1ccc(CN(C)C(=O)C(CCc2ccccc2)NC(=O)C(NC(=O)c2ccc(OCc3ccccc3)cc2)C(C)O)cc1 (centres unmarked)	CAPN1	enzyme activity, inhibitor	–	100 µM	–	inhibition	-11%
Cc1cc(=O)oc2cc(O[C@@H]3O[C@H](CO)[C@H](O)[C@H](O)[C@H]3O)ccc12	Adhesin FmlH lectin domain	binding to desialylated mucin, ELISA competition	UPEC UTI89	100 µM	–	inhibition	85.3 ± 0.7%
C=CC(=O)Nc1cccc(-c2cnc3[nH]cc(C(=O)NC(C)(C)C)c3n2)c1	CK2	–	–	0.1 µM	–	inhibition	2% and 1%
Nc1ccc(S(=O)(=O)N(Cc2cccc(Br)c2)CC2CCC(C(=O)NO)CC2)cc1 (centres unmarked)	USP51	enzyme activity, inhibitor	–	1 µM	–	inhibition	3.8 ± 0.9%
